{"data": "Measurements gathered from unrelated publications", "note": "Every numbered part comes from another study and shows a few of its results, in no order."}
{"data": "Series 1", "target": "Prothrombin, mature alpha-thrombin (F2, Homo sapiens, UniProt P00734)", "method": "aptamer microarray, sandwich", "molecule type": "DNA with 2'F-ANA", "medium": "in vitro", "concentration": "200 nM", "setting": "whole 15-mer aptamer, many near background", "added": "Cy3 exosite-II aptamer, 400 nM", "direction": "higher = stronger binding", "strand": "GGTTGGTGTGGTTGG"}
{"Modification": "2'F-ANA at 2 3 4 5 6 7 8 9 10 12 14", "mean fluorescence intensity [a.u.]": 49.2}
{"Modification": "2'F-ANA at 1 4 6 7 8 9 11 12", "mean fluorescence intensity [a.u.]": 227}
{"Modification": "2'F-ANA at 1 2 3 5 6 8 9 10 11 12 14", "mean fluorescence intensity [a.u.]": 48.4}
{"Modification": "2'F-ANA at 1 2 4 7 9 14 15", "mean fluorescence intensity [a.u.]": 294}
{"Modification": "2'F-ANA at 3 4 8 11 12 15", "mean fluorescence intensity [a.u.]": 885}
{"data": "Series 2", "target": "PABPC1L2, full length, GST fusion (mouse, UniProt A0ABA7IW68)", "method": "RNAcompete", "molecule type": "RNA", "medium": "in vitro", "concentration": "20 nM", "setting": "7-mer, probes averaged, single round", "relative to": "mean of 7-mers", "direction": "higher = stronger binding", "Target sequence (chain)": "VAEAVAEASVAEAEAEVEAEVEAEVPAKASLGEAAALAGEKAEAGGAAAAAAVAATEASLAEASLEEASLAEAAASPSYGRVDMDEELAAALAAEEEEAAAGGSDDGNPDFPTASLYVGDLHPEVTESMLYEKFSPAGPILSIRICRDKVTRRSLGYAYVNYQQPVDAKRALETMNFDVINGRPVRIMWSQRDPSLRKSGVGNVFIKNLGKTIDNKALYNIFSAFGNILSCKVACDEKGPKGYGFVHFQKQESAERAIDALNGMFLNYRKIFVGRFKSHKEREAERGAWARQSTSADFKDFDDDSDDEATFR"}
{"Strand": "UGCGUAA", "7-mer Z-score": -0.112}
{"Strand": "AUUAUGA", "7-mer Z-score": 0.0678}
{"Strand": "AAGGCUA", "7-mer Z-score": 0.245}
{"Strand": "AGCGAAG", "7-mer Z-score": 0.106}
{"Strand": "UAUUUGG", "7-mer Z-score": -0.293}
{"Strand": "GUUGCUG", "7-mer Z-score": -0.206}
{"Strand": "CCUCGCG", "7-mer Z-score": -0.44}
{"data": "Series 3", "target": "Phosphate system positive regulatory protein PHO4, full length, GST-tagged (PHO4, Saccharomyces cerevisiae, UniProt P07270, residues 1-312)", "method": "competition protein-binding microarray", "molecule type": "double-stranded DNA, one strand shown", "medium": "in vitro", "concentration": "2 µM", "setting": "whole 60-bp probe, lowest competitor level", "added": "Cbf1 competitor, 0.05 µM", "direction": "higher = stronger binding", "Target sequence (chain)": "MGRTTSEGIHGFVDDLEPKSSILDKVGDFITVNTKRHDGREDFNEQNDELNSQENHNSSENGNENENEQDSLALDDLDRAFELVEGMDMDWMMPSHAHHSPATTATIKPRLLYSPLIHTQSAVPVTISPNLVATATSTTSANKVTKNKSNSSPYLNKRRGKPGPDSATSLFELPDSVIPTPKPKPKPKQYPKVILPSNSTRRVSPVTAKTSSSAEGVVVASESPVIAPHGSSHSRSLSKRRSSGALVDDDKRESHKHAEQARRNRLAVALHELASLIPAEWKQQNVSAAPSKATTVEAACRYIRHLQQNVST"}
{"Strand": "CTTTCCCGATCTTGTCACAGGACTTTAGCACATTTGGTCTTGATTCGCTTGACGCTGCTG", "fluorescence intensity [a.u.]": 4170}
{"Strand": "TAATAATTAGCCCTTCACGTGATGGCAGCCAGTTGTGTCTTGATTCGCTTGACGCTGCTG", "fluorescence intensity [a.u.]": 11100}
{"Strand": "TTCAACTTGGAATCCGACGTGATGGACTCAACGCCAGTCTTGATTCGCTTGACGCTGCTG", "fluorescence intensity [a.u.]": 3040}
{"Strand": "TGCGCAACAACTTGTCACGTCACTTTATGTCTAGAAGTCTTGATTCGCTTGACGCTGCTG", "fluorescence intensity [a.u.]": 4550}
{"data": "Single results of other studies"}
{"Substance": "PhoQ, residues 284 288 289 292 302 303 ASSHFY", "target": "PhoP, residues 12 14 15 18 19 NQCAL (Escherichia coli, UniProt P23836)", "assay": "Sort-seq, item: YFP reporter", "system": "E. coli", "setting": "PhoQ-PhoP variant library, added: 10 µM Mg2+", "how to read": "relative to: high Mg2+ state, higher = stronger signaling", "endpoint": "fold induction", "result": 20}
